Published values pooled from the literature.
Every numbered part comes from another study and shows a few of its results, in no order. Positions count from the first letter of the parent shown.

Series 1
Target: RNA binding protein fox-1 homolog 2, RRM domain, GST-SBP tag (RBFOX2, Homo sapiens, UniProt O43251-10, residues 100-194)
Method: RNA Bind-n-Seq
Form: RNA
Matrix: in vitro
Tested at: 365 nM
Notes: natural RNA segment, single round, ends assumed
Baseline: no-protein control
Direction: higher = stronger binding
Constant ends, left off below: GGGAGUUCUACAGUCCGACGAUC … UGGAAUUCUCGGGUGCCAA
Construct (chain): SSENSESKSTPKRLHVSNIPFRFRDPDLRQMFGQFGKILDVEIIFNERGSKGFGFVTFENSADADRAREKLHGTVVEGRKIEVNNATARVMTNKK
Strand | RBNS enrichment (R)
GAGUGUGAAGAUGGUGGUUAGCAGUUUCACUAAGACUGAUAUUUUAGGCCUCUUGUUCACAUCAAAAGAUAUUGGUGUCAGAAUACCAGCAUUUUCCUGCCAUGCAAAGG | 1.09
AGAUCCAGCGGAAAGUUGAAAAUAAACUGGAAUGAUCAUCUUGGCUUGGGCCGCUUAGGAACAAGAACCGGAGAGAAGUGAUUGGAAAUGAACUCUUGCCCUGGAAUAAU | 0.193
GUGGGAGGAGCAUCAAGGGGCCUGUCUCUAGGAGCUGUGUGGUUCUGGGCAGUGGUCUGUUCACCCUGAGUCCCACCCUUUGUUAAAUAACAAACUGCUGAUUCUUAAAA | 1.05
AGCAGCGACUCAAGGGCCGUGUGUACAUAUGUAAAUGAGAAAUAGACAUGUCAACAAGAUACAUUCAUUUCUCCCGGAAUGUGUAUUGUUUUUAUUUUACAAAACAGAGA | 0.505
CUUCGGUGUCCUCCACACUGACACAGAUCCCCUCCUCAUGGUCGGCAGUUGUGCCCGUUUUUUGACAUCUGUGUCCCUUCAUGUUGCAUCAUCUGUACUAUUCUGUGUUA | 0.611
GCUUGGAUAUAAAAUCACUGAGCUGUUUCCGGUUCUCUCUAAGUUUGGGAAUCCUAUGUGUAUUUAGUUCUGACUAGUCGUUUGAGGUCUCGGUGGCAGAGCCUGGCUAG | 0.703
AAAUAUGGGGGUCAUGAUUCAACAGAAGUUACAUGGGAUGAAUGGCUCCCAGUUUUCCAGUUUGAGGUUCGUAGAACAAUGUCAAGUGGCAAAAUGAAGUUGGUGGACUC | 0.342
AGGAGGGGGAGUGGAGGGGCAUAGCCUUUCCCUAAUUCUGCCUUAAAUAAAACUGCAUUGCUGAUUCGUGAUGAUUCCUUACUUCGUGCAUAGAGGGGAGGCGGGAGCUG | 0.564

Series 2
Target: CCNA2, cyclin fold, Cln2 fusion (human)
Method: yeast growth competition, sequencing
Matrix: yeast
Notes: weak parent motif
Baseline: not given
Direction: higher = stronger binding
Starting sequence: SLBP docking peptide (human); ARYKRKLLINDFG
Substitution | normalised enrichment score
ARYKRKLPINDFG [L8P] | 0.746
ADYKRKLLINDFG [R2D] | 1.07
ARYKRKLLIFDFG [N10F] | 1.74
AWYKRKLLINDFG [R2W] | 1.17
VRYKRKLLINDFG [A1V] | 0.87
ARYKRKVLINDFG [L7V] | 1.79
ARYKRKLLINDKG [F12K] | 1.27
KRYKRKLLINDFG [A1K] | 0.00767
ARYKRKMLINDFG [L7M] | 1.28
ARYKRKNLINDFG [L7N] | 1.55

Series 3
Target: Fragile X messenger ribonucleoprotein 1, C-terminal low-complexity region (Fmr1, Mus musculus, UniProt P35922)
Method: RNA Bind-n-Seq
Form: RNA
Matrix: in vitro
Tested at: 200 nM
Notes: whole 134-nt RNA, ends assumed
Together with: 150 mM KCl
Baseline: input library
Direction: higher = stronger binding
Constant ends, left off below: GGGAGUUCUACAGUCCGACGAUC … UGGAAUUCUCGGGUGUCAAGG
Strand | log2 enrichment
CCUCAAGUCCUGUGCUACACAUCGUAUGUACCGAAUCGGCCGGCCGGCCGGGAAAGUAUUAUGUUACGCCGUUCGGAUCUGCACUUCCAG | -0.345
CACAGACAGCACGCACCCACACAGACACAGAGGGAAGGGGUUGGGAUGGGGACAGGGUGCACAGCAGGGCGGGGUAGGACCCCAGCCCCU | 1.23
CCUGUGCUACACAUCGUAUGUACCGAAUCGGGGCCCCCCCGGGCCCCCCCGGCCCCCCCGGAAAGUAUUAUGUUACGCCGUUCGGAUCUG | -0.624
GUCCUGUGCUACACAUCGUAUGUACCGAAUCGGGUUUUUGGGUUUUUGGGGUUUUUGGAAAGUAUUAUGUUACGCCGUUCGGAUCUGCAC | 0.0244
CCUGUGCUACACAUCGUAUGUACCGAAUCGGGGCCCCCCGGGCCCCCCGGGCCCCCCGGGAAAGUAUUAUGUUACGCCGUUCGGAUCUGC | -0.723
AGUCCUGUGCUACACAUCGUAUGUACCGAAUCGGGGAAAAAGGGGAAAGGGGUGGGGAAAGUAUUAUGUUACGCCGUUCGGAUCUGCACU | 0.249
CUCAAGUCCUGUGCUACACAUCGUAUGUACCGAAUCGGGCGGGGCGGGGCGGGGAAAGUAUUAUGUUACGCCGUUCGGAUCUGCACUUCC | 1.29
UGGCCCUGGUGGCAUGCGGGGAGGAAGAGGUGGCCUCAUGGAUCGUGGUGGUCCCGGUGGAAUGUUCAGAGGUGGCCGUGGUGGAGACAC | 0.0967
UCAAGUCCUGUGCUACACAUCGUAUGUACCGAAUCGGGUGGGAAAGGGAAAGGGAAAGUAUUAUGUUACGCCGUUCGGAUCUGCACUUCC | 0.886

Further values, each from its own experiment
Molecule | target | assay | test system | conditions | how to read | quantity | result
PhoQ, residues 284 288 289 292 302 303 NLALSC | PhoP, residues 12 14 15 18 19 NHFRA (Escherichia coli, UniProt P23836) | Sort-seq, measured: YFP reporter | E. coli | PhoQ-PhoP variant library, together with: 10 µM Mg2+ | baseline: high Mg2+ state, higher = stronger signaling | fold induction | 6.08

For quick reference, copied from above (series 2):
Substitution | normalised enrichment score
ARYKRKVLINDFG [L7V] | 1.79
ADYKRKLLINDFG [R2D] | 1.07
KRYKRKLLINDFG [A1K] | 0.00767
ARYKRKLLINDKG [F12K] | 1.27
